Measurements collected from several papers.
Lines come from different studies, so protocols differ. Numbers after ± are the reported error. ≈ marks a conversion by molar mass, not a printed value.
lecA: PA-I galactophilic lectin (lecA, Pseudomonas aeruginosa, UniProt Q05097)
Sequence of UniProt P26718 (whole entry, looked up): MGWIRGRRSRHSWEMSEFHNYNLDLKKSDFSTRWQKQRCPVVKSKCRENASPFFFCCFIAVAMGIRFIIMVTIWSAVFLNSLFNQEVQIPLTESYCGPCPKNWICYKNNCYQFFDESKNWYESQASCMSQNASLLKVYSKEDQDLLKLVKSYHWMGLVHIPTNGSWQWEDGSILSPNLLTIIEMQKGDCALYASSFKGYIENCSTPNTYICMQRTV
Sequence of UniProt P18654 (whole entry, unmodified, looked up): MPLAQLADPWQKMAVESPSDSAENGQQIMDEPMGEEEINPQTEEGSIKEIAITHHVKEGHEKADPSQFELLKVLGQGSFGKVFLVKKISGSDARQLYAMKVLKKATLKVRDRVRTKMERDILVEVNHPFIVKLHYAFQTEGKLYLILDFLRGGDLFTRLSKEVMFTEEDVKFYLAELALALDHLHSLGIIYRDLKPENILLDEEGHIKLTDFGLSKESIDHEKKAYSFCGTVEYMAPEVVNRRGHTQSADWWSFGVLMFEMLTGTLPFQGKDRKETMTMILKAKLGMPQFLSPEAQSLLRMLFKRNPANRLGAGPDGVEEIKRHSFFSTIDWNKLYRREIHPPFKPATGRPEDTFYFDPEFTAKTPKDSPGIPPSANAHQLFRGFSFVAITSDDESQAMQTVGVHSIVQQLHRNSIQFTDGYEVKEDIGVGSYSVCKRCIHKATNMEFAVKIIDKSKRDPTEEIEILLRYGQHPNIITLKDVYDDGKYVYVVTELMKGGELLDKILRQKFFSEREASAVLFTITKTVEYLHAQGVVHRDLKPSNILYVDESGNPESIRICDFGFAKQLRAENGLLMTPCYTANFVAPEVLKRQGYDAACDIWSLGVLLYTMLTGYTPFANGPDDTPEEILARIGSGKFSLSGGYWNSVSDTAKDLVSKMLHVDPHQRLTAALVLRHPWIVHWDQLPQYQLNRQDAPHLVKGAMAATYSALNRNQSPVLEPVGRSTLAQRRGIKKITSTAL
Sequence of UniProt P61073 (whole entry, unmodified, looked up): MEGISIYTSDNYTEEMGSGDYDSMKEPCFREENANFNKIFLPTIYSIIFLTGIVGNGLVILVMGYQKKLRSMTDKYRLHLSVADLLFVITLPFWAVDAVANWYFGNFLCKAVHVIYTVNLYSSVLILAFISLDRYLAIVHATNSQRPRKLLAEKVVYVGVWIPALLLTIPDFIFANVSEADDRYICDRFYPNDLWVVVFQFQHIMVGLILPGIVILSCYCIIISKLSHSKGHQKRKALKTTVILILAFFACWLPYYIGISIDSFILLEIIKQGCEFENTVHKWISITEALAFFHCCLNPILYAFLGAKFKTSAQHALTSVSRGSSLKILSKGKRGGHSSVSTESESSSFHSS
Sequence of UniProt Q9Y253 (whole entry, looked up): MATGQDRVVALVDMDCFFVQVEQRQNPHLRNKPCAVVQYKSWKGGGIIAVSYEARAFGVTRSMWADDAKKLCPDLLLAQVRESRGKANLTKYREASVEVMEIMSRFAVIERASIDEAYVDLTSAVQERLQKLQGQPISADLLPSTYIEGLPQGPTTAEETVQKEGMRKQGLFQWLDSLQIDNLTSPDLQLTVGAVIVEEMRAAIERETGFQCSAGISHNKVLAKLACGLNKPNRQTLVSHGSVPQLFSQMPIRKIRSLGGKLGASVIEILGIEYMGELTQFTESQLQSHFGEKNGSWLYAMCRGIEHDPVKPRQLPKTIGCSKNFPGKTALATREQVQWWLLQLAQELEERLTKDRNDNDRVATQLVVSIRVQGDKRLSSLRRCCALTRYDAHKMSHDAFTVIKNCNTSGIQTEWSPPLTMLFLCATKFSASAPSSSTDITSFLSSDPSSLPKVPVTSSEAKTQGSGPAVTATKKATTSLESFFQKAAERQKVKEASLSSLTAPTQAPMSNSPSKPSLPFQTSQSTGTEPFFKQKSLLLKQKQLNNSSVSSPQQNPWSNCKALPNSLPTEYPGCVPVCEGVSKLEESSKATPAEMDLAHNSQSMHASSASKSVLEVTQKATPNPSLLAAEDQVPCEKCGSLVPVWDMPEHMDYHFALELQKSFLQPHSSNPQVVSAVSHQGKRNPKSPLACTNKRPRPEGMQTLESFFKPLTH
Sequence of UniProt Q92918 (whole entry, looked up): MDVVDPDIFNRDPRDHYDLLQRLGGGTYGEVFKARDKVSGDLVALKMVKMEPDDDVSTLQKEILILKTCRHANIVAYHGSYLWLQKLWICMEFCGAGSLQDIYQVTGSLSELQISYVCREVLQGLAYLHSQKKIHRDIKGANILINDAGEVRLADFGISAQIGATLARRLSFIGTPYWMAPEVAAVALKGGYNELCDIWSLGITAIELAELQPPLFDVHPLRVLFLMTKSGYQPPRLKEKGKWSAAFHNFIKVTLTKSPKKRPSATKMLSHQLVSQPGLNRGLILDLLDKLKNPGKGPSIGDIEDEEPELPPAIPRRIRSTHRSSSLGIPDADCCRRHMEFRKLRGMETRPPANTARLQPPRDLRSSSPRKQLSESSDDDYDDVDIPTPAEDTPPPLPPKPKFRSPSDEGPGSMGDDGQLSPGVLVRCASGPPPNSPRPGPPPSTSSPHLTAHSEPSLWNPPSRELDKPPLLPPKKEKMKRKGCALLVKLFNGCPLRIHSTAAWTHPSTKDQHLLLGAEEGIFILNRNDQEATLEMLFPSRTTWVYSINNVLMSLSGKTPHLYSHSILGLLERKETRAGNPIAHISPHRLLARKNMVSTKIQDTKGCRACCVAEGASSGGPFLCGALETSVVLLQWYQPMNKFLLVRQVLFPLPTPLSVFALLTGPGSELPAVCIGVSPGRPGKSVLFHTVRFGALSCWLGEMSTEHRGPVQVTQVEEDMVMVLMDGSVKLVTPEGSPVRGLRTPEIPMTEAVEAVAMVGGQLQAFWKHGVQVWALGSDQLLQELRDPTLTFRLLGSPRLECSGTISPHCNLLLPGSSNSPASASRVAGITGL
Sequence of UniProt O88457 (whole entry, looked up): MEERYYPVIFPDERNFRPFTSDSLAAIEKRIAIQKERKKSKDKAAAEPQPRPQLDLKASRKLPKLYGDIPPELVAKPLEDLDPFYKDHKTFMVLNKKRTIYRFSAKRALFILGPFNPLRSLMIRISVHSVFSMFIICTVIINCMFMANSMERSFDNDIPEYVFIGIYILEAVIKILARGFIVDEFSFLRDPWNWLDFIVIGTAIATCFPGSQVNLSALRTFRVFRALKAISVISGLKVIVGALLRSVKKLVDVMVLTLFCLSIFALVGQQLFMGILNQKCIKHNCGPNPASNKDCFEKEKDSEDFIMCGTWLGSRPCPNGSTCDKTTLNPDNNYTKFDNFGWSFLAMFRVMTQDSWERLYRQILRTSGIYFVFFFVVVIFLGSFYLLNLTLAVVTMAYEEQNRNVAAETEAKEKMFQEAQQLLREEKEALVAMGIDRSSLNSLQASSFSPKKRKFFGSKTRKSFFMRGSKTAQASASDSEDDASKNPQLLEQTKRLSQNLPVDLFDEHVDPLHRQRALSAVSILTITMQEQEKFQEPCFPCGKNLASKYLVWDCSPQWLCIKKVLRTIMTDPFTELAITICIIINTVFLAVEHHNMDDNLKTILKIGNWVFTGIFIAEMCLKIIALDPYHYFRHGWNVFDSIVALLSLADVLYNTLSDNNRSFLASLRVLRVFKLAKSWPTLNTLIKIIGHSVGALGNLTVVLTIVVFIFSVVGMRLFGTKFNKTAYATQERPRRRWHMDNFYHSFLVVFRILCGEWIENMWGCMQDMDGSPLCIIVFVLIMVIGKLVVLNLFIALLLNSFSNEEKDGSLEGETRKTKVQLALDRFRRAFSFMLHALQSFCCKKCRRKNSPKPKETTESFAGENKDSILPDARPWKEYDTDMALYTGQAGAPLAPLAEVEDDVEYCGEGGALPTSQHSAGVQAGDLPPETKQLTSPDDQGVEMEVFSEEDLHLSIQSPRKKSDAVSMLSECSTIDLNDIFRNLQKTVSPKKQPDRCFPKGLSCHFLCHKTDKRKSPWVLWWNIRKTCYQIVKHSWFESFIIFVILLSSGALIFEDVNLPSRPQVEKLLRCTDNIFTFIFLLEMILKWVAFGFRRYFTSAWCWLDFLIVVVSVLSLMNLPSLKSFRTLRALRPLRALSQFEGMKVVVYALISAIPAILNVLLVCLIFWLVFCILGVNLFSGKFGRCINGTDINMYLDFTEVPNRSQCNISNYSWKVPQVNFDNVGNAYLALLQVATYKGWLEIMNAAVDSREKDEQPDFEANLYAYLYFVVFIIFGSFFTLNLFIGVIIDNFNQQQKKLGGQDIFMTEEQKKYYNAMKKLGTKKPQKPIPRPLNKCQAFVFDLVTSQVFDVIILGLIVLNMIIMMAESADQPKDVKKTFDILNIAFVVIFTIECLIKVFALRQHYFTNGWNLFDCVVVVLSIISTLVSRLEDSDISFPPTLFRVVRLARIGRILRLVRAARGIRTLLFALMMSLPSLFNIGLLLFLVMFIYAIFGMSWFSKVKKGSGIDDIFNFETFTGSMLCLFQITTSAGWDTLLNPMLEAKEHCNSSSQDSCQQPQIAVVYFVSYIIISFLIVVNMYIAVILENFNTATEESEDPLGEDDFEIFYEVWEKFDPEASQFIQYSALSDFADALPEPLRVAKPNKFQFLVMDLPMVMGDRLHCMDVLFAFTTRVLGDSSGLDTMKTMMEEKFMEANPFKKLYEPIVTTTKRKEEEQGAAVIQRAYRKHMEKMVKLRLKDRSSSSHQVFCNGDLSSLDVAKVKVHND
Sequence of UniProt Q9NXA8 (whole entry, looked up): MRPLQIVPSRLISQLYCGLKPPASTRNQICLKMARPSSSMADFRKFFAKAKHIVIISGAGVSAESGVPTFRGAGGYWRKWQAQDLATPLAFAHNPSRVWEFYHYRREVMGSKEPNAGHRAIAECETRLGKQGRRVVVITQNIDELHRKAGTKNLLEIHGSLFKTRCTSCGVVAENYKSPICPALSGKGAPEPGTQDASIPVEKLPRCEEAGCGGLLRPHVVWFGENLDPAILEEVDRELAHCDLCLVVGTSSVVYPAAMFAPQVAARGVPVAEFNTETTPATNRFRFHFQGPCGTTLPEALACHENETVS

NC(Cc1ccccc1)C(O)CNCc1cccc(C(F)(F)F)c1 (stereo not drawn)  STD NMR signal (Amyloid-beta precursor protein, amyloid-beta 1-40 oligomers (APP, Homo sapiens, UniProt P05067); binding, STD NMR; highest STD): 0.89%
O=[N+]([O-])c1ccc(OP(=O)(O)O)cc1  relative catalytic efficiency (Alkaline phosphatase PafA (pafA, Elizabethkingia meningoseptica, UniProt Q9KJX5, R164A); Chryseobacterium meningosepticum; pH 8.0; baseline: wild type over mutant kcat/KM): 12
CN(C)C(=O)[C@@H](NC(=O)c1cnccc1-c1ccc(C(F)(F)F)cc1)c1cc(Cl)cc(C(F)(F)F)c1  maximum inhibition (NKG2-D type II integral membrane protein, with MICA (KLRK1, Homo sapiens, UniProt P26718); ligand binding, inhibitor, TR-FRET; HEK293 expressing NKG2D and DAP10; added: MICA-Alexa647; baseline: positive control): 101 ± 30.3%
CC(=O)Nc1ccc2ccn(-c3cc(NS(C)(=O)=O)n4ncc(C#N)c4n3)c2c1  activity (CSNK2A1 (Homo sapiens, UniProt P68400); HEK293; 10 µM): inactive
O=[N+]([O-])c1c(Br)c(Cl)c2cccnc2c1O  affinity ratio (blaNDM-1 (Klebsiella pneumoniae, UniProt C7C422); binding, microscale thermophoresis; baseline: compound over nitroxoline): ~10
O=C(Cn1cc(C2CCCC2)nn1)N[C@H]1CCOC1=O  activation (lasR (Pseudomonas aeruginosa, UniProt P25084); reporter gene, agonist; Escherichia coli, DH5α pJN105L/pSC11; 100 µM; baseline: OdDHL at same concentration): 0%
CC(C)CC(NC(=O)C(NC(=O)NC(C(=O)O)C(C)C)C1CCNC(=N)N1)C(=O)NCCCNC(C(=O)O)C(OC1OC(CN)C(O)C1O)C1OC(n2ccc(=O)[nH]c2=O)C(O)C1O (stereo not drawn)  binding enthalpy (mraY (Aquifex aeolicus, UniProt O66465); isothermal titration calorimetry; concentration not given, wild type, added: Mg2+): -15 ± 3.5 kcal/mol
CCN(Cc1ccccc1)C(=O)CCc1nc(CN2CCN(C(=O)Cc3ccc(OC)c(OC)c3)CC2)no1  V1/2 of inactivation (Sodium channel protein type 11 subunit alpha (Scn11a, Rattus norvegicus, UniProt O88457); whole-cell patch clamp; rat DRG neurons; 300 nM): -94.5 ± 9.11 mV
CNc1ccc2c(n1)sc1c(N3CCNCC3)nc(NC)nc12  k3/KI (Eubacterium eligens beta-glucuronidase; slow-binding inhibitor; added: PNPG): 453 ± 9 M⁻¹ s⁻¹
Cc1ccc(-c2c(/C=C(\C#N)C(=O)NC(C)C)n(CCCO)c3ncnc(N)c23)cc1  fold resistance (Ribosomal protein S6 kinase alpha-3, C-terminal kinase domain (Rps6ka3, Mus musculus, UniProt P18654, C436V); kinase activity, inhibitor; baseline: C436V mutant over wild type): ~1000 fold
CC[C@H](C)[C@H](NC(=O)[C@H](Cc1c[nH]cn1)NC(=O)[C@H](CCCCNC(=O)[C@@H](NC(=O)[C@H](CCCCN)NC(=O)CSC[C@H](NC(=O)[C@H](Cc1ccccc1)NC(=O)[C@H](CCCCNC(=O)[C@H](CC(C)C)NC(=O)[C@@H]1CCCN1C(=O)[C@H](CCCCN)NC(=O)c1ccc(O[C@@H]2O[C@H](CO)[C@H](O)[C@H](O)[C@H]2O)cc1)NC(=O)[C@H](CC(C)C)NC(=O)[C@@H]1CCCN1C(=O)[C@H](CCCCN)NC(=O)C[C@@H]1O[C@@H](C)[C@@H](O)[C@@H](O)[C@@H]1O)C(N)=O)[C@@H](C)CC)NC(=O)[C@@H](NC(=O)[C@H](CCCCN)NC(=O)CSC[C@H](NC(=O)[C@H](Cc1ccccc1)NC(=O)[C@H](CCCCNC(=O)[C@H](CC(C)C)NC(=O)[C@@H]1CCCN1C(=O)[C@H](CCCCN)NC(=O)c1ccc(O[C@@H]2O[C@H](CO)[C@H](O)[C@H](O)[C@H]2O)cc1)NC(=O)[C@H](CC(C)C)NC(=O)[C@@H]1CCCN1C(=O)[C@H](CCCCN)NC(=O)C[C@@H]1O[C@@H](C)[C@@H](O)[C@@H](O)[C@@H]1O)C(N)=O)[C@@H](C)CC)C(N)=O  relative potency per galactoside (lecA; binding, isothermal titration calorimetry; divided by galactoside copies; baseline: monovalent galactoside KD over ligand KD): 20
S=C(N/N=C/c1ccc(OCc2ccccc2)cc1)Nc1ccccc1  remaining activity (MAOA (Homo sapiens, UniProt P21397); enzyme activity, inhibitor, absorbance; 10 µM): 60.3%
CC(C)C[C@@H](N)C(=O)NCC(=O)N[C@H](C)C(=O)N[C@H](CO)C(=O)N[C@H](Cc1c[nH]c2ccccc12)C(=O)N[C@H](Cc1c[nH]cn1)C(=O)N[C@H](CCCNC(=N)N)C(=O)N1CCC[C@@H]1C(=O)N[C@H](CC(=O)O)C(=O)N[C@H](CCCCN)C(=O)N[C@H](CCCCN)C(=O)N[C@H](CCCNC(=N)N)C(=O)NCCCCCC(=O)N[C@@H](CCCCN)C(=O)N[C@@H](CCCNC(=N)N)C(=O)N[C@@H](CCCCN)C(=O)N[C@H](C(=O)N[C@@H](CC(N)=O)C(=O)N[C@@H](CC(N)=O)C(=O)N[C@@H](CC(N)=O)C(=O)N1CCC[C@H]1C(=O)N[C@@H](CCCNC(=N)N)C(=O)N[C@H](C(=O)N[C@@H](CS)C(N)=O)[C@@H](C)O)[C@@H](C)O  binding affinity change (CXCR4 (Homo sapiens, UniProt P61073, W94A); 12G5 antibody binding; 200 nM, mutant W94A; baseline: wild type): decreased
Cc1cc(O)cc(C)c1CC(N)C(=O)NC1CCNc2c(C(=O)NCc3ccccc3)cc(Cc3ccccc3)cc21 (stereo not drawn)  efficacy (Oprm1 (Rattus norvegicus, UniProt P33535); agonist; C6 cells expressing MOR; baseline: DAMGO at 10 µM): 73%
Cc1cc(Nc2cc(CN(C)C)cc(NC(=O)c3cc(CN(C)C)cc(Nc4ccnc5ccccc45)c3)c2)nc(N)n1  kcat (DNA polymerase eta (POLH, Homo sapiens, UniProt Q9Y253); nucleotide incorporation; concentration not given): 0.04 s⁻¹
CC[C@H](C)[C@@H]1NC(=O)[C@H](Cc2ccc(O)cc2)NC(=O)[C@@H](N)CSSC[C@@H](C(=O)N2CCC[C@H]2C(=O)N[C@@H](CC(C)C)C(=O)NCC(N)=O)NC(=O)[C@H](CC(N)=O)NC(=O)[C@H](CCC(N)=O)NC1=O  Emax (Oxytocin receptor (OXTR, Homo sapiens, UniProt P30559); membrane hyperpolarisation; CHO cells): 5060 RFU
CCC(C)(CNC(=O)Nc1ccc(C(=O)Nc2nccs2)cc1)N1CCOCC1 (stereo not drawn)  ΔTm (pqsE (Pseudomonas aeruginosa, UniProt P20581, S160A); thermal stability, DSF): 8.5 °C
CC(=O)NC(Cc1ccc(Br)c(Cl)c1)C(=O)N[C@@H](C)C(=O)N1CCC[C@H]1C(=O)N1CCC[C@H]1C(=O)N[C@@H](CCC(=O)O)C(=O)N[C@@H](Cc1c[nH]cn1)C(=O)N[C@@H](CO)C(=O)N[C@H](C(=O)N[C@@H](C)C(N)=O)[C@@H](C)OP(=O)(O)O (stereo partly drawn)  inhibition (MAP4K1 (Homo sapiens, UniProt Q92918); enzyme activity, inhibitor; 10 µM): 0.82%
C#CCNC(=O)c1ccc([P+](CCCC(=O)N[C@@H](CCCCNC(=O)c2cncc(OS(=O)(=O)F)c2)C(=O)N[C@@H](CCCNC(=N)N)C(=O)NC2CCC2)(c2ccccc2)c2ccccc2)cc1  remaining activity (SIRT5 (Homo sapiens, UniProt Q9NXA8); enzyme activity, inhibitor, jump-dilution; concentration not given, 16 h preincubation, 100-fold dilution; baseline: DMSO): ~10%
Cc1cc([C@H](NC(=O)c2cnccc2-c2ccc(C(F)(F)F)cc2)C(=O)N(C)C)cc(C(F)(F)F)c1  maximum inhibition (NKG2-D type II integral membrane protein, with ULBP6 (KLRK1, Homo sapiens, UniProt P26718); ligand binding, inhibitor, TR-FRET; HEK293 expressing NKG2D and DAP10; added: ULBP6-AF647; baseline: positive control): 103%
CC[C@H](C)[C@H](NC(=O)[C@H](Cc1c[nH]cn1)NC(=O)[C@H](CCCCNC(=O)[C@@H](NC(=O)[C@H](CCCCN)NC(=O)[C@H](Cc1ccccc1)NC(=O)[C@H](CCCCNC(=O)[C@H](CC(C)C)NC(=O)[C@@H]1CCCN1C(=O)[C@H](CCCCN)NC(=O)CCS[C@@H]1O[C@H](CO)[C@H](O)[C@H](O)[C@H]1O)NC(=O)[C@H](CC(C)C)NC(=O)[C@@H]1CCCN1C(=O)[C@H](CCCCN)NC(=O)CCS[C@@H]1O[C@H](CO)[C@H](O)[C@H](O)[C@H]1O)[C@@H](C)CC)NC(=O)[C@@H](NC(=O)[C@H](CCCCN)NC(=O)[C@H](Cc1ccccc1)NC(=O)[C@H](CCCCNC(=O)[C@H](CC(C)C)NC(=O)[C@@H]1CCCN1C(=O)[C@H](CCCCN)NC(=O)CCS[C@@H]1O[C@H](CO)[C@H](O)[C@H](O)[C@H]1O)NC(=O)[C@H](CC(C)C)NC(=O)[C@@H]1CCCN1C(=O)[C@H](CCCCN)NC(=O)CCS[C@@H]1O[C@H](CO)[C@H](O)[C@H](O)[C@H]1O)[C@@H](C)CC)C(N)=O  MIC (lecA; hemagglutination, inhibitor; rabbit erythrocytes; 30 min, 4 °C): 125 µM (≈ 473 µg/mL)

A few entries again:
Cc1cc(Nc2cc(CN(C)C)cc(NC(=O)c3cc(CN(C)C)cc(Nc4ccnc5ccccc45)c3)c2)nc(N)n1  kcat (DNA polymerase eta (POLH, Homo sapiens, UniProt Q9Y253); nucleotide incorporation; concentration not given): 0.04 s⁻¹
CC(C)CC(NC(=O)C(NC(=O)NC(C(=O)O)C(C)C)C1CCNC(=N)N1)C(=O)NCCCNC(C(=O)O)C(OC1OC(CN)C(O)C1O)C1OC(n2ccc(=O)[nH]c2=O)C(O)C1O (stereo not drawn)  binding enthalpy (mraY (Aquifex aeolicus, UniProt O66465); isothermal titration calorimetry; concentration not given, wild type, added: Mg2+): -15 ± 3.5 kcal/mol
CCC(C)(CNC(=O)Nc1ccc(C(=O)Nc2nccs2)cc1)N1CCOCC1 (stereo not drawn)  ΔTm (pqsE (Pseudomonas aeruginosa, UniProt P20581, S160A); thermal stability, DSF): 8.5 °C
